Measured values pooled from the literature.
Each numbered part is a random draw from the data of one study; scales do not carry over between parts. Positions count from the first letter of the parent shown.
Sequence of UniProt Q13882 (whole entry, looked up): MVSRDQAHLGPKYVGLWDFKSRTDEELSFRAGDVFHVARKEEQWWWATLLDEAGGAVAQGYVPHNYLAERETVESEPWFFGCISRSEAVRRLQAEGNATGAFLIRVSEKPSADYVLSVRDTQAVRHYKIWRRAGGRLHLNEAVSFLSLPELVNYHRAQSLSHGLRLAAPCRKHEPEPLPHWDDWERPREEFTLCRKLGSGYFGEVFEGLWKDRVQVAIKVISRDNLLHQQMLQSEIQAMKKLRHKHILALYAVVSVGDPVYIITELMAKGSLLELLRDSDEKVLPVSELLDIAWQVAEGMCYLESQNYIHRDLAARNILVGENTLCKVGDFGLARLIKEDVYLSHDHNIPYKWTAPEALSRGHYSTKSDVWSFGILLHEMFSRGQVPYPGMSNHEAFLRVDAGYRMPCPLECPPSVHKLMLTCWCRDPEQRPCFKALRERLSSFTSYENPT

Series 1
Target: ABI1, truncated, D143A, DHFR fusion (Arabidopsis thaliana, UniProt P49597)
Method: DHFR PCA, dose-response
Medium: yeast
Notes: Hill fit, mean, not affinity
Together with: (+)-ABA, dose series
Reading: lower = more sensitive
Starting sequence: PYL1, truncated, DHFR fusion (Arabidopsis thaliana, UniProt Q8VZS8); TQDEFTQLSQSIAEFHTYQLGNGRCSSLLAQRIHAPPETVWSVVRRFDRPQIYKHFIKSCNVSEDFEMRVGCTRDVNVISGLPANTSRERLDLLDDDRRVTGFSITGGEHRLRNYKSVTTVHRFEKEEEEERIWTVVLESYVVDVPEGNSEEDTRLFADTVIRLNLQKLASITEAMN
| Variant | ABA EC50 [µM] |
| --- | --- |
| K116C | 26 |
| T39W | 10.1 |
| D75L | 0.827 |
| I12M | 15.5 |
| T6V | 3.1 |
| N61D | 1.79 |
| S150H | 34.2 |
| D153Q | 18.6 |

Series 2
Target: Interferon regulatory factor 3, full length, phosphomimetic (IRF3, Homo sapiens, UniProt Q14653, residues 1-427, S386D/S396D/S398D/S402D/T404D/S405D)
Method: protein-binding microarray
Form: double-stranded DNA, one strand shown
Medium: in vitro
Tested at: 2540 nM top
Notes: 60-bp whole probe
Together with: salmon DNA 0.4 mg/ml
Relative to: random background probes
Reading: higher = stronger binding
Shared flanks, not repeated: GCCTAGCAC … GTCTTGATTCGCTTGACGCTGCTG
Construct (chain): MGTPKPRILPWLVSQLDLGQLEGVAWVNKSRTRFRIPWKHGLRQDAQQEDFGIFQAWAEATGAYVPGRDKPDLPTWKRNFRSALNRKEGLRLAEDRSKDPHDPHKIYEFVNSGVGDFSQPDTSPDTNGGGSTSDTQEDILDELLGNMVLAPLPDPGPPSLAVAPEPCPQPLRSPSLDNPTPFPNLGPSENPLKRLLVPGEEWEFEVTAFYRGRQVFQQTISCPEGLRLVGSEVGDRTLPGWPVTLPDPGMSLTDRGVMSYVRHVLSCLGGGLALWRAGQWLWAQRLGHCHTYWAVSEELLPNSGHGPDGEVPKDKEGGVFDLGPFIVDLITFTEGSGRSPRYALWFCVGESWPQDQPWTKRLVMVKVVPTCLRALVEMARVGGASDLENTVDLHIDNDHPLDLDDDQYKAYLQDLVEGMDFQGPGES
| Oligonucleotide | fitted relative affinity |
| --- | --- |
| TTGGGTATCGGTTTCGGTTAGTGCTAG | 7.91 z-score |
| GACGGACTGCTTCTCCTGACGTGCTAG | -0.202 z-score |
| GACGGTTTCGGTTTCGGGACGTGCTAG | 11 z-score |
| GGGTGTGTGAGTGTGTGTGCGTGCTAG | -1.07 z-score |
| GTCGGACTGGACTATCGGGACGTGCTA | -0.279 z-score |
| GACGGAATGCTACTGCTGACGTGCTAG | -0.473 z-score |
| GACGGTTTCGTGACTGGGGACGTGCTA | 2.67 z-score |
| TCAGGTTCCGGTTTCGGTTAGTGCTAG | 7.8 z-score |

Mixed results
| Compound | tested on | test | setting | scale | endpoint | value |
| --- | --- | --- | --- | --- | --- | --- |
| COc1ccc(COc2ccc(Cc3cnc(N)nc3N)cc2OC)cc1 | PTK6 (Homo sapiens, UniProt Q13882) | enzyme activity, inhibitor | 0.5 µM | relative to: control | remaining activity | 96.1% |
| Cc1cc2c(-c3ccco3)cnc(N[C@@H]3CCN(C)C[C@H]3C(=O)NC3CCCCC3)c2[nH]c1=O | normal-adjacent epithelium patient-derived organoids sample G | CellTiter-Glo | 1 µM | relative to: DMSO | viability | 70.4% |
